Published values collected from several papers.
Parts stem from different laboratories: compare values within a part only. Substitutions count along the parent as printed.

Block 1
Target: Fragile X messenger ribonucleoprotein 1, C-terminal low-complexity region (Fmr1, Mus musculus, UniProt P35922)
Method: RNA Bind-n-Seq
Form: RNA
Sample: in vitro
Concentration: 200 nM
Notes: whole 134-nt RNA, ends assumed
Added: 150 mM KCl
Relative to: input library
Reading: higher = stronger binding
Constant ends, left off below: GGGAGUUCUACAGUCCGACGAUC … UGGAAUUCUCGGGUGUCAAGG
Sequence | log2 enrichment
AAGUCCUGUGCUACACAUCGUAUGUACCGAAUCGGGGAGGGGAGGGGUUUUUGGGGAAAGUAUUAUGUUACGCCGUUCGGAUCUGCACUU | 0.836
UGGGACGUGGAUUUUGUUUAUUUUUUUAGCUCAUUUCCAGGGGUGGGAAUUUUUUUUUAAUAUGUGUCAUGAAUAAAGUUGUUUUUGAAA | -0.46
GUCCUGUGCUACACAUCGUAUGUACCGAAUCGGGAAAAAAGGAAAAAAGGAAAAAAGGGAAAGUAUUAUGUUACGCCGUUCGGAUCUGCA | -0.48
CCUGUGCUACACAUCGUAUGUACCGAAUCGGGGAAAAAAAGGGGUUUUUUUGGGGUGGGGAAAGUAUUAUGUUACGCCGUUCGGAUCUGC | 0.492
GCUGUGACCCCAACGCCGGUGCCCGUGGUCGGGAGCCAGAUGACCAGACAAGCCCGGCGCCUCUACGUGGGCAACAUCCCCUUUGGCAUC | -0.174

Block 2
Target: Interferon regulatory factor 3, full length, phosphomimetic (IRF3, Homo sapiens, UniProt Q14653, residues 1-427, S386D/S396D/S398D/S402D/T404D/S405D)
UniProt Q14653, sequence (whole entry, unmodified, looked up): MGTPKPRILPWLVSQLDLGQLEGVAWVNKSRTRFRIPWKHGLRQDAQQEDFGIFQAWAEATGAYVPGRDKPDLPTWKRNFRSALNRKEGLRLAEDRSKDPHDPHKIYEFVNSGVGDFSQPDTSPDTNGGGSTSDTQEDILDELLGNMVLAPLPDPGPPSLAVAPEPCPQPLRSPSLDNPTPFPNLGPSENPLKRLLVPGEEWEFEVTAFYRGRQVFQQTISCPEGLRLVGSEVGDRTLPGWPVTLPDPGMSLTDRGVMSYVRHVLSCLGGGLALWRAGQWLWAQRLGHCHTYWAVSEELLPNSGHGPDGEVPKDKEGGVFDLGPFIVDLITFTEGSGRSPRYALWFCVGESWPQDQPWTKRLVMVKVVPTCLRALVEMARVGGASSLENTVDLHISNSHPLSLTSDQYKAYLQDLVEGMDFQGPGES
Method: protein-binding microarray
Form: double-stranded DNA, one strand shown
Sample: in vitro
Concentration: 2540 nM top
Notes: 60-bp whole probe
Added: salmon DNA 0.4 mg/ml
Relative to: random background probes
Reading: higher = stronger binding
Sequence | fitted relative affinity [z-score]
GCCTAGCACTTAGGACTGGACTCTCGGTTAGTGCTAGTCTTGATTCGCTTGACGCTGCTG | -0.788
GCCTAGCACGACGATACCGGGACTGGAGACGTGCTAGTCTTGATTCGCTTGACGCTGCTG | -0.271
GCCTAGCACAACGATATCGGGTATCGAGACGTGCTAGTCTTGATTCGCTTGACGCTGCTG | 0.222
GCCTAGCACGCCGAACTGGGGACTGGAGACGTGCTAGTCTTGATTCGCTTGACGCTGCTG | 0.578

Block 3
Substance: PhoQ, residues 284 288 289 292 302 303 QWGLFV
Method: Sort-seq
Refers to: YFP reporter
Sample: E. coli
Notes: PhoQ-PhoP variant library
Added: 10 µM Mg2+
Relative to: high Mg2+ state
Reading: higher = stronger signaling
target | fold induction
PhoP, residues 12 14 15 18 19 SHWTV (Escherichia coli, UniProt P23836) | 1.64
PhoP, residues 12 14 15 18 19 QYCSL (Escherichia coli, UniProt P23836) | 9.48
PhoP, residues 12 14 15 18 19 STHWV (Escherichia coli, UniProt P23836) | 9.22

Block 4
Target: CCNB1, cyclin fold, Cln2 fusion (human)
Method: yeast growth competition, sequencing
Sample: yeast
Notes: weak parent motif
Relative to: not given
Reading: higher = stronger binding
Starting sequence: CDC25A docking peptide (human); PPHRRRLLFACSP
Substitution | normalised enrichment score
PPHRAAAAFACSP [R5A R6A L7A L8A] | 0.14
PPHRRRRLFACSP [L7R] | 0.38
PPKRRRLLFACSP [H3K] | -0.0458

For quick reference, copied from above (block 1):
Sequence | log2 enrichment
GUCCUGUGCUACACAUCGUAUGUACCGAAUCGGGAAAAAAGGAAAAAAGGAAAAAAGGGAAAGUAUUAUGUUACGCCGUUCGGAUCUGCA | -0.48
CCUGUGCUACACAUCGUAUGUACCGAAUCGGGGAAAAAAAGGGGUUUUUUUGGGGUGGGGAAAGUAUUAUGUUACGCCGUUCGGAUCUGC | 0.492
